Published values of several laboratories.
Every numbered part comes from another study and shows a few of its results, in no order. “And” joins repeats or separate records; there may be more than shown.
Sequence of UniProt P42336 (whole entry, unmodified, looked up): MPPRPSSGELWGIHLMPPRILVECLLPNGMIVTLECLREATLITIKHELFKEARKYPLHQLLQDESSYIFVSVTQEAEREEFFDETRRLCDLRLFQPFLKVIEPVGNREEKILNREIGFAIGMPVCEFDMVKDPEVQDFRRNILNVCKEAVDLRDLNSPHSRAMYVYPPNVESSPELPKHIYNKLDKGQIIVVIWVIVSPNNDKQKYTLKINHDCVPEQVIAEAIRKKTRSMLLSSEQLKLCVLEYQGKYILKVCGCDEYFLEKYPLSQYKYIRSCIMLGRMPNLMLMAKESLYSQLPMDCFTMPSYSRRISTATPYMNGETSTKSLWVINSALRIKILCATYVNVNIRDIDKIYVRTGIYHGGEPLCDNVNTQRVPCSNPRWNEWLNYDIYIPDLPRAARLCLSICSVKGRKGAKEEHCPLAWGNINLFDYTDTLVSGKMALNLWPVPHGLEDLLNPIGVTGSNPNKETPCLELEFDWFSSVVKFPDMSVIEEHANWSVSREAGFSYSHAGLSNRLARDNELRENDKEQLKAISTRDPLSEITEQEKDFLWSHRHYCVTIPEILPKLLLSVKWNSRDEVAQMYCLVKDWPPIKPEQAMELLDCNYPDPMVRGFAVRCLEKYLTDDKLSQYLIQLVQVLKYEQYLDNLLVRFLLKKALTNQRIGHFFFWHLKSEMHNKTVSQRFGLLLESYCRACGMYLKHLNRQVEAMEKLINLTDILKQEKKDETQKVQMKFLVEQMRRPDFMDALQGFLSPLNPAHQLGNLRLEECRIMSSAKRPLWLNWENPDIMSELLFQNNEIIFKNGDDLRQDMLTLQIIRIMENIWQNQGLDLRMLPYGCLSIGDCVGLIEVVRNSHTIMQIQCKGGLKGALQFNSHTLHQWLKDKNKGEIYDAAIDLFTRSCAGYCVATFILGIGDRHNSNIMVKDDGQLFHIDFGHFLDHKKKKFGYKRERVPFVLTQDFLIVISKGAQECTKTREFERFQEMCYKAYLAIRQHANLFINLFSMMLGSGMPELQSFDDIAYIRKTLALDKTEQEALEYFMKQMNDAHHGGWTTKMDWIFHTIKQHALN
Sequence of UniProt Q8NE63 (whole entry, looked up): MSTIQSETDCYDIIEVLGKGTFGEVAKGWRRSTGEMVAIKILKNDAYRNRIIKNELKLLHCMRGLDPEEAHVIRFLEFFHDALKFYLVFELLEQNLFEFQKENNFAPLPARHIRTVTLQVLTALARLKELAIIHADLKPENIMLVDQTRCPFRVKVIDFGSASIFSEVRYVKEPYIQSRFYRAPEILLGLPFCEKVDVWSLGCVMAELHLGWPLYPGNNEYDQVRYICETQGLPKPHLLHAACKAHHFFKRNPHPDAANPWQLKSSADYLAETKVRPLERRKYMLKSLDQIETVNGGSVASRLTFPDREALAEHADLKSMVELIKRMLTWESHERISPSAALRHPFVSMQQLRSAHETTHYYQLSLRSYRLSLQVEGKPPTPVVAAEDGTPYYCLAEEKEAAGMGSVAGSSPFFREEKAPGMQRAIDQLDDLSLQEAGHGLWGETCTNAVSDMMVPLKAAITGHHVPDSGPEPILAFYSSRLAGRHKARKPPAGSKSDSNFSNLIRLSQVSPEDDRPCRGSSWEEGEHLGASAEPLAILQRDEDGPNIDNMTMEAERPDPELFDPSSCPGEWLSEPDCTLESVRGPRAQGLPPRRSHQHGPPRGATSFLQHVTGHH
Sequence of UniProt Q12851 (whole entry, looked up): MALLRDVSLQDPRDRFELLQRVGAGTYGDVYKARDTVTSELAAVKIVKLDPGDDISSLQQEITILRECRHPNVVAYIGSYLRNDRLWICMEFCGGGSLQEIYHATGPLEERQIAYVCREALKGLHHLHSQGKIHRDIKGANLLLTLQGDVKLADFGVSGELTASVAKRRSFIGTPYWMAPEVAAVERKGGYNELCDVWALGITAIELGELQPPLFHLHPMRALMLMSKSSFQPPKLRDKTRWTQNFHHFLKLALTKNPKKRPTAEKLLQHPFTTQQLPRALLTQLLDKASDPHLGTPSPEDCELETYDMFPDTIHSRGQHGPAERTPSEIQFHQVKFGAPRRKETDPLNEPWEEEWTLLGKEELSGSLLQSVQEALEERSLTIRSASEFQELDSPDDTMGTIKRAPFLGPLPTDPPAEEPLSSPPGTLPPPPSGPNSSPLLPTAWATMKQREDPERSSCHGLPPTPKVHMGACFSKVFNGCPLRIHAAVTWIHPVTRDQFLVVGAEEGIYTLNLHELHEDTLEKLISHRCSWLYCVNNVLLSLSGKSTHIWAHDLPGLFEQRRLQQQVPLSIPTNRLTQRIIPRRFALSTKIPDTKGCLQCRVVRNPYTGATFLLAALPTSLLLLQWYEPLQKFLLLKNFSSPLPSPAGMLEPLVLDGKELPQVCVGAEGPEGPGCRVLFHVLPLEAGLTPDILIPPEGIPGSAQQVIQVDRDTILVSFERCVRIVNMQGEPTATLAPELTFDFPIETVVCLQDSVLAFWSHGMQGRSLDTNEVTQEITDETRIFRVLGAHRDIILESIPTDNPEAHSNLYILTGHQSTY
Sequence of UniProt Q92630 (whole entry, looked up): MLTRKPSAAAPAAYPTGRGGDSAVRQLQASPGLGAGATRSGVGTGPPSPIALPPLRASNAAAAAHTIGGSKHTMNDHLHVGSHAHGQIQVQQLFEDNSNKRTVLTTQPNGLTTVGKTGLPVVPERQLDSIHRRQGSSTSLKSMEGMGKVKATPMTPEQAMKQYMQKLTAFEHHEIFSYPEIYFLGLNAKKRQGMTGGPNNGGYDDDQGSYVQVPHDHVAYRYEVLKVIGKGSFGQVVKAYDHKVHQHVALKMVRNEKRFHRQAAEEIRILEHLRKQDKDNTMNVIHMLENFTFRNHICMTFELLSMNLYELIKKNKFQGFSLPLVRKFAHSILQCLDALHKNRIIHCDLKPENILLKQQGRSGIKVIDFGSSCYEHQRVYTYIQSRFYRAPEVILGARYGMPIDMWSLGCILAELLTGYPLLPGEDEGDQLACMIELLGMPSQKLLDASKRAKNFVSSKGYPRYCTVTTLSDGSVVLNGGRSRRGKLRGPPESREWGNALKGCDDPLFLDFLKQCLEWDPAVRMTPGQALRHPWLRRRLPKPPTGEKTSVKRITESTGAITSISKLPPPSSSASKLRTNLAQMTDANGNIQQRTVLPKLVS
Sequence of UniProt P54764 (whole entry, looked up): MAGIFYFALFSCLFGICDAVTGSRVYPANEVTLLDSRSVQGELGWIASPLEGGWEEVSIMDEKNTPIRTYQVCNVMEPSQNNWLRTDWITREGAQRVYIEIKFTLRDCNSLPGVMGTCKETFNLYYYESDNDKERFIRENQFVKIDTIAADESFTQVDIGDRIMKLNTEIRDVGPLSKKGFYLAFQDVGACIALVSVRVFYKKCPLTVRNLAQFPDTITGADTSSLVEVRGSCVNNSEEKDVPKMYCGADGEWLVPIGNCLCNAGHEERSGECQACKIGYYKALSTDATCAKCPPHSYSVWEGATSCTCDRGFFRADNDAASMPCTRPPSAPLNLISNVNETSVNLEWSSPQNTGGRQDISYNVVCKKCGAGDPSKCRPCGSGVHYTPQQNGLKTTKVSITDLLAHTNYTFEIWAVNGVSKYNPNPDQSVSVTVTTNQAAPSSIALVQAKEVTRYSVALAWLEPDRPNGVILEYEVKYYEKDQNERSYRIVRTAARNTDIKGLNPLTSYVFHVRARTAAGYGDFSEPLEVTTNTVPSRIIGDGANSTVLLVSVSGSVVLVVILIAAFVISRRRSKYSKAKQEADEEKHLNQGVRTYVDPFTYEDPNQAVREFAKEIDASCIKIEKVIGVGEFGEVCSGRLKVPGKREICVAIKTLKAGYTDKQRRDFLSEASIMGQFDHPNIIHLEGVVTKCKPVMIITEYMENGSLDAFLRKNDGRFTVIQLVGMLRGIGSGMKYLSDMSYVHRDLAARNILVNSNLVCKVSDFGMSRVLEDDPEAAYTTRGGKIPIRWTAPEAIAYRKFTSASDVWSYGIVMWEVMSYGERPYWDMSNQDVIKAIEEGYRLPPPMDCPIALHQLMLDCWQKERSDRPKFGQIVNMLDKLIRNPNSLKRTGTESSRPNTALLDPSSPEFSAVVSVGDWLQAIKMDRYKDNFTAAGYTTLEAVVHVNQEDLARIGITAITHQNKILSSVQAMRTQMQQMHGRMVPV

Set 1
SMILES: CCCOc1ccc([C@@H]2[C@@H](C(=O)O)[C@H](c3ccc4c(c3)OCO4)CN2CC(=O)Nc2c(CC)cccc2CC)cc1
Observed: cell-free assay
Technique: competition with immobilised ligand
Tested at: 1 µM
| target | remaining binding [%] |
| --- | --- |
| Receptor-type tyrosine-protein kinase FLT3 (FLT3, Homo sapiens, UniProt P36888) | 100 |
| STE20-like serine/threonine-protein kinase (SLK, Homo sapiens, UniProt Q9H2G2) | 100 |
| Death-associated protein kinase 3 (DAPK3, Homo sapiens, UniProt O43293) | 79 |
| 1-phosphatidylinositol 3-phosphate 5-kinase (PIKFYVE, Homo sapiens, UniProt Q9Y2I7) | 91 |
| Phosphatidylinositol 4,5-bisphosphate 3-kinase catalytic subunit alpha isoform (PIK3CA, Homo sapiens, UniProt P42336, H1047L) | 83 |
| Cyclin-dependent kinase 17 (CDK17, Homo sapiens, UniProt Q00537) | 90 |
| Mitogen-activated protein kinase kinase kinase 4 (MAP3K4, Homo sapiens, UniProt Q9Y6R4) | 99 |
| Serine/threonine-protein kinase 32B (STK32B, Homo sapiens, UniProt Q9NY57) | 100 |
| Mitogen-activated protein kinase kinase kinase kinase 2 (MAP4K2, Homo sapiens, UniProt Q12851) | 98 |
| Tyrosine-protein kinase ABL2 (ABL2, Homo sapiens, UniProt P42684) | 96 |
| Dual specificity tyrosine-phosphorylation-regulated kinase 2 (DYRK2, Homo sapiens, UniProt Q92630) | 92 |
| Serine/threonine-protein kinase MARK2 (MARK2, Homo sapiens, UniProt Q7KZI7) | 92 |
| Mast/stem cell growth factor receptor Kit (KIT, Homo sapiens, UniProt P10721, V559D) | 93 |
| Proto-oncogene tyrosine-protein kinase receptor Ret (RET, Homo sapiens, UniProt P07949, V804M) | 94 |
| Phosphatidylinositol 4,5-bisphosphate 3-kinase catalytic subunit alpha isoform (PIK3CA, Homo sapiens, UniProt P42336, M1043I) | 91 |

Set 2
Compound: Cn1cnc2cc3c(Nc4cccc(Br)c4)ncnc3cc21
Observed: enzyme activity
Mode: inhibitor
Tested at: 0.5 µM
Relative to: control
| target | remaining activity |
| --- | --- |
| Testis-specific serine/threonine-protein kinase 2 (TSSK2, Homo sapiens, UniProt Q96PF2) | 111% |
| Mitogen-activated protein kinase kinase kinase kinase 4 (MAP4K4, Homo sapiens, UniProt O95819) | 52.1% |
| Tyrosine-protein kinase receptor UFO (AXL, Homo sapiens, UniProt P30530) | 101% |
| MAP kinase-activated protein kinase 3 (MAPKAPK3, Homo sapiens, UniProt Q16644) | 94.4% |
| Homeodomain-interacting protein kinase 4 (HIPK4, Homo sapiens, UniProt Q8NE63) | 88.6% |
| Serine/threonine-protein kinase 17A (STK17A, Homo sapiens, UniProt Q9UEE5) | 82.5% |
| Phosphorylase b kinase gamma catalytic chain, skeletal muscle/heart isoform (PHKG1, Homo sapiens, UniProt Q16816) | 85% |
| Ephrin type-A receptor 4 (EPHA4, Homo sapiens, UniProt P54764) | 80.7% |
| Cyclin-dependent kinase 4, with cyclin D3 (CDK4, Homo sapiens, UniProt P11802) | 95.9% |
| Serine/threonine-protein kinase 16 (STK16, Homo sapiens, UniProt O75716) | 96.3% |

Set 3
Cell line: mouse MPNST tumor cells
Technique: high-content immunofluorescence imaging
Measured: nuclear SOX9
Tested at: 10 µM
Time: 12 h
Setting: mean of 2 replicates
Relative to: DMSO control
Direction: higher = more nuclear SOX9
| Compound | nuclear SOX9 intensity |
| --- | --- |
| CN(CCOc1ccc(CC2SC(=O)NC2=O)cc1)c1ccccn1 (stereo not shown) | 103 % of DMSO and 95.1 % of DMSO and 96.2 % of DMSO |
| NC(CO)C(=O)NNCc1ccc(O)c(O)c1O (stereo not shown) | 90.8 % of DMSO |
| CC(CN(C)C)C(C)(O)Cc1ccc(Cl)cc1 (stereo not shown) | 109 % of DMSO |
| CC(C)c1c(NC(=O)Nc2ccc(Cl)cc2)c(=O)n(-c2ccccc2)n1C | 103 % of DMSO |
| CC1CNc2c(cccc2S(=O)(=O)N[C@@H](CCCNC(=N)N)C(=O)N2CC[C@@H](C)C[C@@H]2C(=O)O)C1 (stereo partly shown) | 93.6 % of DMSO and 97.7 % of DMSO and 96.6 % of DMSO |
| CN(C)CCn1nnnc1SCC1=C(C(=O)O)N2C(=O)[C@@H](NC(=O)Cc3csc(N)n3)[C@H]2SC1 | 100 % of DMSO |
| CCCNC(=O)NS(=O)(=O)c1ccc(Cl)cc1 | 94.6 % of DMSO |
| CN1CCc2c(c3ccccc3n2Cc2ccccc2)C1 | 158 % of DMSO |

Set 4
Structure (SMILES): CC(=O)N[C@@H](Cc1c[nH]c2ccccc12)C(=O)N[C@@H](CCC(=O)C=[N+]=[N-])C(=O)OC(C)C
Host: mouse, EL4 tumour-bearing
Medium: EL4 tumour
Dose: dose not given
Relative to: vehicle
| assay | fold change |
| --- | --- |
| measured: dehydroascorbate | 2.21 |
| measured: sucrose | 3.25 |
| measured: succinate | 0.363 |
| measured: glucose | 4.21 |

Some of these lines once more (set 1):
| target | remaining binding [%] |
| --- | --- |
| STE20-like serine/threonine-protein kinase (SLK, Homo sapiens, UniProt Q9H2G2) | 100 |
| Death-associated protein kinase 3 (DAPK3, Homo sapiens, UniProt O43293) | 79 |
| 1-phosphatidylinositol 3-phosphate 5-kinase (PIKFYVE, Homo sapiens, UniProt Q9Y2I7) | 91 |
| Phosphatidylinositol 4,5-bisphosphate 3-kinase catalytic subunit alpha isoform (PIK3CA, Homo sapiens, UniProt P42336, H1047L) | 83 |
| Cyclin-dependent kinase 17 (CDK17, Homo sapiens, UniProt Q00537) | 90 |
| Mitogen-activated protein kinase kinase kinase 4 (MAP3K4, Homo sapiens, UniProt Q9Y6R4) | 99 |
